Results from different studies.
Each numbered part is a random draw from the data of one study; scales do not carry over between parts.

Study 1 — technique: RNA Bind-n-Seq; molecule type: RNA; medium: in vitro; tested at: not given; reference: input RNA pool; direction: higher = stronger binding; quantity: bound/input enrichment
Target: RING finger protein unkempt homolog, zinc fingers 1-6, GST-SBP tag (UNK, Homo sapiens, UniProt Q9C0B0, residues 30-357)
Notes: RNA with constant flanks, human and mouse sites, ends assumed
Shared flanks, not repeated: GGGAGUUCUACAGUCCGACGAUC … CAACAGAGGAUUGAGCAUCA
Residues (chain): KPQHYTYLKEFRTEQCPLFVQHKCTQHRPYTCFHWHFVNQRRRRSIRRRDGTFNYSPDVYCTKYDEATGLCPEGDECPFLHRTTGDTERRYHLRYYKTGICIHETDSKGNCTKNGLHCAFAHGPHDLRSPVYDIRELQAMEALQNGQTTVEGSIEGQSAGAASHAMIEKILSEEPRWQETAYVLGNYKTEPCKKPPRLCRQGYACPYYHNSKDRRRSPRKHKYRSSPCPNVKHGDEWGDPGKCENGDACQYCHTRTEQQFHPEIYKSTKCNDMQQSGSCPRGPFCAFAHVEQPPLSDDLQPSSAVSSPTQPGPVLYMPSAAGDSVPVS
AAGAAUCCUGGUGUGGGCAAUGGAGAUGAUGAAGCAGCUGAAUUGAUGCAGCAGGUCAAAGUACUGAAGCUUACUGUUGAAGACUUGGAGAAGGAGAGAGACUUCUACUUCGGAAAGCUA: 0.585 ratio
CAUGCACACAAGUCCCCCUACUGCUGCCCGGAGUGCGGUGUCCUCUGUCGCUCUGCUUACUUCCAGACUCACGUAAAGGAGAAUUGCCUGCACUAUGCCCGAAAAGUGGGCUACAGGUGC: 0.383 ratio
GACUAUACAAUCCCAGAUGAGUAUAGAAUUGGACCAUAUCAGCCCAAUGUUCCUGUUGGUAUAGACUAUGUGAUACCUAAAACAGGGUUUUACUGUAAGCUGUGUUCACUCUUUUAUACA: 0.0923 ratio
GAAAAGAAGCAACAACUUCUUAGAGCAGCAACAGGAAAGGCCAUUUUAAAUGGAAUAGACAGCAUAAACAAAGUGCUAGACCACUUCCGUCGAAAAGGAAUAAACCAGCAUGUUCAAAAU: 0.116 ratio
CUCCAUGAGCUGAAAAUGAAGGGCCCUGAGCCAGUGGUCAGUCAAAUUAUUGACAAACUGAAGCACAUUAACCAGCUCCUGAGAACCAUGUCUAUGCCCAAAGGUAGAGUUCUGGAUAAA: 0.174 ratio
CUGAGAAUCUAUCUUGAUGAAAGGAGAGAUGUCUUGGAUGACCUUGUAACCUUGCAUAAUUUUAGAAAUCAGUUCUUGCCGAAUGCACUGAGAGAAUUUUUUCGUCAUAUUCAUGCCCCU: 0.128 ratio
UUUGUAUUUAUGCUAAGCACACGUGCUGGUGGUCUGGGCAUCAAUCUUGCAACUGCUGAUGUAGUCAUUUUAUAUGACUCAGAUUGGAAUCCGCAAGUUGAUCUUCAGGCUAUGGACCGU: 0.106 ratio
AUCGCUGUUGGAUCCAUCUCCUUCCUUCUGGGAGUUGUACUGCUAGUAAUUAAUCAUAAAUAUAGAAACAGUAGUAAUACAGCUGACAUUACCAUUUAAUUUUAUAUUAUGAAAGCAAAU: 0.333 ratio

Study 2 — technique: protein binding microarray; molecule type: double-stranded DNA, one strand shown; medium: in vitro; tested at: not given; reference: not given; direction: higher = stronger binding; quantity: E-score
Target: Histone acetyltransferase KAT6A, winged helix 1, GST fusion (KAT6A, Homo sapiens, UniProt Q92794, residues 1-85)
Notes: 8-mer, flanks averaged, mean of 2 arrays, mostly near background
Construct (chain): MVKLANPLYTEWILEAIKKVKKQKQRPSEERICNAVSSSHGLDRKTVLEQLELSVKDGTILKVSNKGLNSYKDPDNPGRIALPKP
AGTCACAG: -0.186
CGCAATTC: 0.263
AACTACGA: -0.0646
GGAGTTCA: -0.0627
GGTAGCAA: -0.23
TATTATCA: -0.0955
AGCCGCTG: 0.262
CGTTAGAA: -0.165
CGGTCGGA: 0.161
GATGCAGA: -0.236
CGCGTCCC: 0.342
CTCGCTTA: 0.0966
AAGATGCC: 0.0403
CATCAATC: -0.0455
ACTAACTA: -0.0719
GTCGTCAA: -0.109
CCATCTCG: -0.17
TAGTGGCA: -0.119
ACATTTCC: -0.0305
CAAGCTGG: -0.154
GGGTTACA: 0.1
GCCATCTA: -0.137
GGGCTGCA: -0.113
AGCAACAG: -0.131
GGCCAAGA: -0.174

Study 3 — technique: protein-binding microarray; molecule type: double-stranded DNA, one strand shown; medium: in vitro; tested at: 940 nM top; notes: 60-bp whole probe; with: salmon DNA 0.4 mg/ml; reference: random background probes; direction: higher = stronger binding; quantity: fitted relative affinity; shared flanks, not repeated: GCCTAGCAC … GTCTTGATTCGCTTGACGCTGCTG
Target: Interferon regulatory factor 5, full length, phosphomimetic (IRF5, Homo sapiens, UniProt Q13568-2, residues 1-514, S451D/S453D/S456D/S462D)
TCACCTCTCAACCATCCTACTGTGCTA: 1.37 z-score
TTAGATATCGGGTTTCGATGAGTGCTA: 4.27 z-score
TTAGGTTTCGACACAGGGTTAGTGCTA: 9.09 z-score
GACGGTATCGACTTTCGGGCCGTGCTA: 4.01 z-score
GACCATCTCATATAAATAGGCGTGCTA: 0.538 z-score
TTAGATATCGGGTTTCGATTAGTGCTA: 5.23 z-score
GACGTACTGGACTATCGGGACGTGCTA: -0.475 z-score
GACGGTTTCTTTTCCCTGACGTGCTAG: 2.95 z-score
ATCTTTTTCCCTATTATATAGTGCTAG: 2.32 z-score
TTAGATCTGGGGACTGGATTAGTGCTA: -0.262 z-score
CTCTGTCCCCCTTTTATATTGTGCTAG: 0.625 z-score
TCATTTTTTTTTTCCCTACTGTGCTAG: 1.55 z-score
GACGGACTACTTTTCCTGACGTGCTAG: -0.0535 z-score
TAAGGACTGGACACTGGGTTAGTGCTA: -0.287 z-score
TTAGATTCCAATTTCGATTAGTGCTAG: 1.36 z-score
TTAGTTTTCGGGTTTCGGTTAGTGCTA: 7.6 z-score
CCTCAGCTCCCTTTCTCTCTGTGCTAG: 0.795 z-score
AACGGACTGGACTATCGGGACGTGCTA: -0.24 z-score
TCATTTTTGCTTACGATGCAGTGCTAG: 0.128 z-score

Study 4 — technique: RNA Bind-n-Seq; molecule type: RNA; medium: in vitro; tested at: 365 nM; reference: no-protein control; direction: higher = stronger binding; quantity: RBNS enrichment (R)
Target: RNA binding protein fox-1 homolog 2, RRM domain, GST-SBP tag (RBFOX2, Homo sapiens, UniProt O43251-10, residues 100-194)
Notes: natural RNA segment, single round, ends assumed
Shared flanks, not repeated: GGGAGUUCUACAGUCCGACGAUC … UGGAAUUCUCGGGUGCCAA
Residues (chain): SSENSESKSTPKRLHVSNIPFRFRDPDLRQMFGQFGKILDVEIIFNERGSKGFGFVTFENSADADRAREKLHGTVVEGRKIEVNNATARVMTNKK
AUUAGUGAAUAUAGUUUGGAGUUUGGCUUCGUGUCCUGGGUUCUUCCCCGUCCCUUUUCUGUCAGCCCAUCACAGCCACCUGCUCUGCUCAGACAGCCAGGCACCAGAAG: 0.551
ACCCCGGGGCUAUUGGAACCCUUCCAACACUUUUUCCUUUGUCAUAGACAAGUUUAUAUAUAACUUACCAAGAUGUUGGCUGUCCUGGUGUAUUGCCAGACAGCUCUCUU: 0.464
CUUUAUUGCCUUCCUUGGGGAUAAACCAAUUCCUAUCCUUUUUUAUAUGUGUAAGUAAAGCCUGAAGUGUAGGGGGCCUUUGUUCUUGAAGCAGCCAGGGUCUCCUUGCC: 0.527
UACUGAUGGUACCAAAGAAUCAAAGACCAAGGAUGUCAAGACAAAUAUGAAUCUCAUUGAAAUAAAAAAUGCCUUAAAGAAGCAGAUAUACAAGGACAUAUAUAGAGCUC: 0.436
GAAAUGUGGCAGCCCAUUCCAGCACACAGGCUUCUGCAGCAAUCUCUGAGGGUAAAGCCGGUGGGAGGCUCAGCAGGCCAGGAGGCCCAAGGACAGGACUUGCGACCUUG: 0.882
CAAUAAUUUUAAGGUUCUGUUUUAAAUGUAAGAAUUCCAACUUACAGUCUAUUAAAAUUCAGCCCUAAAAUGACAAAGCCUUCUUAAAGCCUUAUUUUUAAAAUCCCCCA: 0.485
CUAUUAACUCAUUGAAUGUGUUUCCUUUGUCUUGUGUUAAUAAAUAUUGAUGCCUGAUUCUGUUUAAUCCUUCACACAUUGGGUGGAGGCUAGGGAAUUGAUAGAUUUUA: 0.641
AGUAGGCCCCUGGUCAGAAGUGCCAUCUCACCAGUGGUCUUCAUUCUUCCUCAUUCAUUCUUUAUCAUCCUGUGUUCUGUUUAGUUGCAACAAUCUCUUGUGACUAAUGU: 0.309

A few entries again (study 2):
GGCCAAGA: -0.174
CGTTAGAA: -0.165
AGTCACAG: -0.186
GGAGTTCA: -0.0627
AAGATGCC: 0.0403
GTCGTCAA: -0.109
GGTAGCAA: -0.23
